Results pooled from the literature.
Each line is one published result; not all experiments were run side by side. ± gives the spread as reported.
UniProt P06276, sequence (whole entry, looked up): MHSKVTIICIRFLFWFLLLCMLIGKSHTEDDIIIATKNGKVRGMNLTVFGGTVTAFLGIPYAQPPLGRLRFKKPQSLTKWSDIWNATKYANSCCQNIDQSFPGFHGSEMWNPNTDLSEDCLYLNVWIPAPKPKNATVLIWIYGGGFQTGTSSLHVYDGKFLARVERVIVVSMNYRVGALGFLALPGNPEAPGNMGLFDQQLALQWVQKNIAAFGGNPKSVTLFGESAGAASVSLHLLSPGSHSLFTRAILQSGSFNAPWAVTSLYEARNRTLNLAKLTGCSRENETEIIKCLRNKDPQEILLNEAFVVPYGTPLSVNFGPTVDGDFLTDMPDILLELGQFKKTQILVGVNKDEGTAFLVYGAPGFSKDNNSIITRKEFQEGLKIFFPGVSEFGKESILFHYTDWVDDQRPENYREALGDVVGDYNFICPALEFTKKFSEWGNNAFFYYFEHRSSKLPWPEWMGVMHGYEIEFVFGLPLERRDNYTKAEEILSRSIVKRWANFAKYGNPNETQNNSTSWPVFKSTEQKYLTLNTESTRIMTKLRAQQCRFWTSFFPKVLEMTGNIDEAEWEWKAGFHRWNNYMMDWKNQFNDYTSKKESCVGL
UniProt P04843, sequence (whole entry, looked up): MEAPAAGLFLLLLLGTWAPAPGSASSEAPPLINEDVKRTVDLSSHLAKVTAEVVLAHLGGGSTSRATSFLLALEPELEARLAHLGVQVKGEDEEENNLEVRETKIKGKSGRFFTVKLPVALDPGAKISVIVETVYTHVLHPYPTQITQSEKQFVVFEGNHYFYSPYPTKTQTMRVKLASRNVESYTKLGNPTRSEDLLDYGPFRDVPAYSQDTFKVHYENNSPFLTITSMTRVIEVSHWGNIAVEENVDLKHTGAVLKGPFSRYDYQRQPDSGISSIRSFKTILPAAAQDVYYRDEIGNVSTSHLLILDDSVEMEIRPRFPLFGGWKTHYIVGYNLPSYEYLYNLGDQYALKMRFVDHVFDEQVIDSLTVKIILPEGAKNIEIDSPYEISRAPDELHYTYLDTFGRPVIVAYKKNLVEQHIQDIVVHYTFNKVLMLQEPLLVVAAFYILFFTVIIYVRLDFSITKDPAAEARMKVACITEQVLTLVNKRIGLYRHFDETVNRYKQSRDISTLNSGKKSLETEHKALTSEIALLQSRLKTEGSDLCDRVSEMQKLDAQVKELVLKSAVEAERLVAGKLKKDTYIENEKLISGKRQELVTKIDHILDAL

SMILES	tested on	test	system	conditions	scale	quantity	value
[Cl-].[Cl-].[Pt+2].[Ru+2].c1ccc(-c2nc3ccccc3nc2-c2ccccn2)nc1.c1cnc2c(c1)ccc1cccnc12.c1cnc2c(c1)ccc1cccnc12	Danio rerio	–	embryos	45 µM, 0 h	–	survival rate	100%
C[C@H]1CN(c2n[nH]c3nc(N[C@H]4CC[C@H](NS(=O)(=O)CCC(F)(F)F)CC4)ncc23)CCO1	Dolichyl-diphosphooligosaccharide--protein glycosyltransferase subunit 1 (Homo sapiens, UniProt P04843)	biochemical	–	–	–	IC50	≥ 20 µM
Cc1cc(C(=O)NC(C)(C)COc2cccc3c2C(N)=NS(=O)(=O)N3)cc(C)n1	Escherichia coli	Ames test, initial	WP2 uvrA	5000 µg/plate, with: rat liver S9	baseline: solvent control	revertant ratio	1
O=[N+]([O-])c1ccc(N2CCN(CCC(O)c3ccc(F)cc3)CC2)c(C(F)(F)F)c1 (centres unmarked)	Salmonella typhimurium	genotoxicity, SOS/umu test	TA1535/pSK1002	0.031 mg/mL, 4 h, with S9, full range	–	induction factor	2
C[C@]12C=CC(=O)C=C1CC[C@@H]1C2=CC[C@]2(C)[C@@H](C(=O)CN3CCN(c4cc(N5CCCC5)nc(N5CCCC5)n4)CC3)CC[C@@H]12	Plasmodium falciparum	–	HB3	–	–	IC50	1.26 µM
[Cl-].[Cl-].[Pt+2].[Ru+2].c1ccc(-c2nccnc2-c2ccccn2)nc1.c1cnc2c(c1)ccc1cccnc12.c1cnc2c(c1)ccc1cccnc12	Danio rerio	–	embryos	90 µM, 24 h	–	survival rate	40 ± 4.1%
O=[N+]([O-])c1ccc(NC2CCNCC2)c(C(F)(F)F)c1	Salmonella typhimurium	SOS/umu test	TA1535/pSK1002	0.002 mg/mL, 4 h, with S9, full range	–	survival	115%
[Cl-].[Cl-].[Pt+2].[Ru+2].c1ccc(-c2nc3cc4ccccc4cc3nc2-c2ccccn2)nc1.c1cnc2c(c1)ccc1cccnc12.c1cnc2c(c1)ccc1cccnc12	Danio rerio	–	embryos	75 µM, 0 h	–	survival rate	100%
COc1cccc(-c2n[nH]c(SCc3ccccn3)n2)c1OC	Escherichia coli	Ames test, plate incorporation	WP2 uvrA	5.0 mg/plate, with rat liver S9	–	revertant colonies per plate	37
O=C1NCc2c1c1c3ccccc3[nH]c1c1[nH]c3ccccc3c21	Cholinesterase (BCHE, Homo sapiens, UniProt P06276)	inhibitor	–	with Triton	–	IC50	23.6 ± 9.34 µM
OC(CCN1CC=C(c2ccc(F)cc2)CC1)c1ccc(F)c2ccccc12 (centres unmarked)	Salmonella typhimurium	SOS/umu test	TA1535/pSK1002	0.125 mg/mL, 4 h, with S9, lower range	–	survival	53.6%
OC(CCN1CCCCC1)(c1ccccc1)C1CCCCC1 (centres unmarked)	Plasmodium falciparum	–	D10	–	–	IC50	12.6 µM
CC(=O)N1CCC(C(=O)N2CCN3C(=O)c4cc(-c5ccccc5)ccc4NC(=O)C3C2)CC1 (centres unmarked)	Escherichia coli	–	WP2 uvrA	158 µg/plate, with rat liver S9	baseline: vehicle	revertant fold increase	0.8
O[C@@H](CNCCN1CCN(C(c2ccccc2)c2ccccc2)CC1)c1cc(Cl)cc2c1-c1ccc(Cl)cc1C2	Plasmodium falciparum	–	W2	–	baseline: HepG2 CC50 over IC50	selectivity index	2080

Repeated from above:
SMILES	tested on	test	system	conditions	scale	quantity	value
CC(=O)N1CCC(C(=O)N2CCN3C(=O)c4cc(-c5ccccc5)ccc4NC(=O)C3C2)CC1 (centres unmarked)	Escherichia coli	–	WP2 uvrA	158 µg/plate, with rat liver S9	baseline: vehicle	revertant fold increase	0.8
